Assay results of several laboratories.
Each line is one published result; not all experiments were run side by side. ± marks the error that the study gave.
PPIA: Peptidyl-prolyl cis-trans isomerase A (PPIA, Homo sapiens, UniProt P62937)
HCRTR1: Orexin/Hypocretin receptor type 1 (HCRTR1, Homo sapiens, UniProt O43613)
GRB2: Growth factor receptor-bound protein 2 (GRB2, Homo sapiens, UniProt P62993)
LRP1 CR3 domain: LRP1, CR3 domain (Homo sapiens, UniProt Q07954)

The Kd of C/C=C1\C([C@@]2(C)CCCC(C)(C)C2)=CC[C@H]2[C@H](OC(C)=O)O[C@H](OC(C)=O)[C@@H]12 (relative stereo) is reported as 2.53 µM (PPIA; binding, SPR; pH 4.5).
Nc1ccn([C@H]2C[C@H](O)[C@@H](COP(=O)(O)OP(=O)(O)OP(=O)(O)O)O2)c(=O)n1 gave a Kd of 61 ± 25 µM (DNA polymerase 3 (dpo3, Saccharolobus solfataricus, UniProt P95979, D236A); nucleotide incorporation, pre-steady-state single turnover; correct incorporation, template G, added: primer-template DNA).
COC(=O)[C@@H](N)CCCN=C(N)N gave a Kd of 5000 ± 500 µM (LRP1, CR8 domain D1085A (Homo sapiens, UniProt Q07954, D1085A); binding, tryptophan fluorescence titration; pH 7.4, 298 K, ionic strength 0.02).
COc1ccc(CC2c3cc(OCCCCOc4ccccc4)c(OC)cc3CCN2CC(=O)NCc2ccccc2)cc1OC (stereo not shown) has a Kd of 0.0435 ± 0.0092 µM (HCRTR1).
CC(C)C[C@H](NC(=O)[C@H](CCCNC(=N)N)NC(=O)[C@@H](N)CC(N)=O)C(=O)N[C@@H](CC(C)C)C(=O)N[C@H](C(=O)NCC(=O)O)[C@@H](C)O has a Kd of 0.962 µM (dnaK (Escherichia coli, UniProt P0A6Y8); peptide binding, surface plasmon resonance; added: ADP).
CCCCCCCCCCCC(=O)O has a Kd of 11.8 µM (Chalcone isomerase-like protein 1 (CHIL1, Humulus lupulus, UniProt A0A2U7XUH7); binding, differential scanning fluorimetry).
O=C(O)c1cc(=O)[nH]c(=O)n1[C@@H]1OC[C@@H](O)[C@H]1O has a Kd of greater than 100000 µM (Orotidine 5'-phosphate decarboxylase (Saccharomyces cerevisiae S288c, UniProt P03962, Q215A); HPLC initial velocity; 25 °C, lower limit, no saturation).
Cn1nc(C(C)(C)C)cc1NC(=O)Nc1ccc(Oc2ccncc2)cc1 has a Kd of 2.6 ± 0.5 µM (Mitogen-activated protein kinase 13, non-phosphorylated (MAPK13, Homo sapiens, UniProt O15264); inhibitor, differential scanning fluorimetry; unphosphorylated kinase).
With CC[n+]1c(-c2ccccc2)c2cc(N)ccc2c2ccc(N)cc21 the Kd was 12.7 ± 1.6 µM (HIV-1 SL4 RNA stem-loop; binding, ESI-FTMS titration; pH 7.5).
For CCOc1cc2c(cc1OC)CCN(CC(=O)NCc1ccccc1)C2Cc1ccc(OC)c(OC)c1 (stereo not shown), the Kd was 0.03 ± 0.009 µM (HCRTR1).
With CN(CCOc1ccc(CC2SC(=O)NC2=O)cc1)c1ccccn1 (stereo not shown) the Kd was 0.11 ± 0.08 µM (Cytochrome P450 2C8 (CYP2C8, Homo sapiens, UniProt P10632, K399R/R139K); binding, equilibrium spectral titration; purified enzyme; pH 7.4, 25 °C, second site, two-site model, added: 2 µM enzyme).
CCCCCOc1ccc(COc2cccc(O)c2C(=O)O)cc1 gave a Kd of 8.65 µM (Polyunsaturated fatty acid 5-lipoxygenase (ALOX5, Homo sapiens, UniProt P09917); enzyme activity, activator, Michaelis-Menten kinetics; binding to free enzyme, added: linoleic acid).
The Kd of Cc1cc(N(C)C)nc(Nc2ccc(NC(=O)Nc3ccccc3)cc2)n1 is reported as 14.8 µM (Ezrin (EZR, Homo sapiens, UniProt P15311); binding, SPR).
The Kd of COc1ccc(CC2c3cc(OCc4cccnc4)c(OC)cc3CCN2CC(=O)NCc2ccccc2)cc1OC (stereo not shown) is reported as 0.277 ± 0.075 µM (HCRTR1).
CC(=O)N[C@@H](CCCCN)C(=O)N[C@@H](CCCNC(=N)N)C(=O)N[C@@H](CC(C)C)C(=O)N[C@@H](CCCNC(=N)N)C(=O)N[C@@H](CCCNC(=N)N)C(=O)N[C@@H](CO)C(=O)N[C@@H](C)C(=O)N[C@@H](Cc1c[nH]cn1)C(=O)N[C@@H](C)C(=O)N[C@@H](CCCNC(=N)N)C(=O)N[C@@H](CCCCN)C(=O)N[C@@H](CCC(=O)O)C(=O)N[C@H](C(=O)N[C@@H](CCC(=O)O)C(=O)N[C@@H](Cc1ccccc1)C(=O)N[C@@H](CC(C)C)C(=O)N[C@@H](CCCNC(=N)N)C(=O)N[C@@H](CC(C)C)C(=O)N[C@@H](CCCCN)C(=O)N[C@@H](CCCNC(=N)N)C(=O)N[C@H](C(=O)N[C@@H](CCCNC(=N)N)C(=O)N[C@@H](CC(C)C)C(=O)NCC(=O)N[C@@H](CC(C)C)C(=O)N[C@@H](CCC(=O)O)C(=O)N[C@@H](Cc1ccc(O)cc1)C(N)=O)[C@@H](C)O)[C@@H](C)O gave a Kd of 2 ± 1 µM (Protein S100-B (Homo sapiens, UniProt P04271); binding, isothermal titration calorimetry; low salt, added: Ca2+ 5 mM; lower-affinity site).
COc1ccc(CC2c3cc(OCCN4CCCCC4)c(OC)cc3CCN2CC(=O)NCc2ccccc2)cc1OC (stereo not shown) has a Kd of 8.04 ± 5.4 µM (HCRTR1).
With CC(C)C[C@H](NC(=O)[C@H](CC(N)=O)NC(=O)[C@H](CCCNC(=N)N)NC(=O)[C@H](CC(=O)O)NC(=O)[C@@H](NC(=O)[C@@H]1CCCN1C(=O)[C@@H]1CCCN1C(=O)[C@@H]1CCCN1)C(C)C)C(=O)N[C@@H](CCCCN)C(=O)N1CCC[C@H]1C(=O)N[C@@H](C)C(=O)N[C@@H](CCCNC(=N)N)C(=O)O the Kd was 49 µM (GRB2; binding, ITC; pH 8).
COC(=O)[C@@H](N)CCCCN has a Kd of 350 ± 20 µM (LRP1, CR8 domain (Homo sapiens, UniProt Q07954); binding, tryptophan fluorescence titration; isolated CR8 domain; pH 7.4, 298 K, ionic strength 0.17).
The Kd of CCCCCC(=O)Nc1ccc(CNC(=O)CN2CCc3cc(OC)c(OC)cc3C2Cc2ccc(OC)c(OC)c2)cc1 (stereo not shown) is reported as greater than 10 µM (HCRTR1).
`BzATP` has a Kd of 0.0074 ± 0.0027 µM (P2X purinoceptor 7 (P2rx7, Rattus norvegicus, UniProt Q64663); bio-layer interferometry).
The Kd of COc1ccc(CC2c3cc(OCCCCN(C)C)c(OC)cc3CCN2CC(=O)NCc2ccccc2)cc1OC (stereo not shown) is reported as 5.74 ± 3.6 µM (HCRTR1).
[I-].[K+] has a Kd of 11500 µM (SLC4A1 (Homo sapiens, UniProt P02730); Cl- exchange, inhibitor, 36Cl flux; erythrocytes, external; pH 10.7, 0 °C, internal Cl- 129 mM).
For COC(=O)[C@@H](N)Cc1c[nH]cn1, the Kd was 1200 ± 70 µM (LRP1 CR3 domain; tryptophan fluorescence titration; pH 5.5, CR3 domain, low ionic strength).
O=C1C=Cc2c(c(-c3ccco3)cn2S(=O)(=O)c2ccccc2)C1=O gave a Kd of 3.34 µM (ELAV-like protein 1 (ELAVL1, Homo sapiens, UniProt Q15717); binding, SPR).
The Kd of COC(=O)[C@H](CCCCN)NC(C)=O is reported as 2400 ± 120 µM (LRP1 CR3 domain; binding, tryptophan fluorescence titration; isolated CR3 domain; pH 7.4, 298 K, ionic strength 0.17).
COCc1c(C(C)C)nc(C(C)C)c(/C=C/[C@@H](O)C[C@@H](O)CC(=O)O)c1-c1ccc(F)cc1 gave a Kd of 3.9 ± 9.3 µM (Cytochrome P450 2C8 (CYP2C8, Homo sapiens, UniProt P10632); binding, equilibrium spectral titration; purified enzyme; pH 7.4, 25 °C, second site, two-site model, added: 2 µM enzyme).
C[C@H](NC(=O)[C@@H](N)CC(=O)O)C(=O)N1CCC[C@H]1C(=O)N1CCC[C@H]1C(=O)N1CCC[C@H]1C(=O)N[C@@H](CCCNC(=N)N)C(=O)N1CCC[C@H]1C(=O)N1CCC[C@H]1C(=O)N[C@@H](CCCCN)C(=O)N1CCC[C@H]1C(=O)N[C@@H](Cc1c[nH]cn1)C(=O)N1CCC[C@H]1C(=O)O gave a Kd of 323 µM (GRB2; binding, ITC; pH 8).
With COc1ccc(CC2c3cc(OS(C)(=O)=O)c(OC)cc3CCN2CC(=O)NCc2ccccc2)cc1OC (stereo not shown) the Kd was 0.0073 ± 0.0027 µM (HCRTR1).
COC(=O)c1cc(Cc2ccc(NCc3ccccc3)c(C(=O)O)c2)ccc1NCc1ccccc1 gave a Kd of 0.23 µM (PPIA; binding, SPR; pH 7.4).
CC1C(=O)N=C(N)N1CCCC(N)C(=O)O (stereo not shown) gave a Kd of 0.044 µM (Advanced glycosylation end product-specific receptor (AGER, Homo sapiens, UniProt Q15109); binding, fluorescence; pH 6.5).
With Nc1ncnc2c1ncn2[C@@H]1O[C@H](COP(=O)(O)OP(=O)(O)OP(=O)(O)O)[C@@H](O)[C@H]1O the Kd was 17 µM (Tyrosine-protein kinase CSK (CSK, Homo sapiens, UniProt P41240)).
CC[C@H]1OC(=O)[C@H](C)C(=O)[C@H](C)[C@@H](O[C@@H]2O[C@H](C)C[C@H](N(C)C)[C@H]2O)[C@](C)(OC)C[C@@H](C)C(=O)[C@H](C)[C@H]2N(CCCCn3cnc(-c4cccnc4)c3)C(=O)O[C@]12C has a Kd of 0.00833 ± 0.00116 µM (rplD/rplV (Escherichia coli, UniProt P60723+P61175); binding; high-affinity site, added: 4.5 mM Mg2+ and 150 mM NH4+).
The Kd of CC(C)C[C@H](NC(=O)[C@H](CC(N)=O)NC(=O)[C@H](CCCNC(=N)N)NC(=O)[C@H](CC(=O)O)NC(=O)[C@H](C)NC(=O)[C@@H]1CCCN1C(=O)[C@@H]1CCCN1C(=O)[C@@H]1CCCN1)C(=O)N[C@@H](CCCCN)C(=O)N1CCC[C@H]1C(=O)N[C@@H](CC(=O)O)C(=O)N[C@@H](CCCNC(=N)N)C(=O)O is reported as 444 µM (GRB2; binding, ITC; pH 8).
For Oc1ccc(Sc2ccc(O)cc2)cc1, the Kd was 500 µM (Regulator of G-protein signaling 17 (Homo sapiens, UniProt Q9UGC6); binding, NMR).

Excerpt of the above:
`BzATP` has a Kd of 0.0074 ± 0.0027 µM (P2X purinoceptor 7 (P2rx7, Rattus norvegicus, UniProt Q64663); bio-layer interferometry).
COc1ccc(CC2c3cc(OCCN4CCCCC4)c(OC)cc3CCN2CC(=O)NCc2ccccc2)cc1OC (stereo not shown) has a Kd of 8.04 ± 5.4 µM (HCRTR1).
The Kd of CC(C)C[C@H](NC(=O)[C@H](CC(N)=O)NC(=O)[C@H](CCCNC(=N)N)NC(=O)[C@H](CC(=O)O)NC(=O)[C@H](C)NC(=O)[C@@H]1CCCN1C(=O)[C@@H]1CCCN1C(=O)[C@@H]1CCCN1)C(=O)N[C@@H](CCCCN)C(=O)N1CCC[C@H]1C(=O)N[C@@H](CC(=O)O)C(=O)N[C@@H](CCCNC(=N)N)C(=O)O is reported as 444 µM (GRB2; binding, ITC; pH 8).
With CC[n+]1c(-c2ccccc2)c2cc(N)ccc2c2ccc(N)cc21 the Kd was 12.7 ± 1.6 µM (HIV-1 SL4 RNA stem-loop; binding, ESI-FTMS titration; pH 7.5).
